Experimental data collected from several papers.
Parts stem from different laboratories: compare values within a part only. Positions count from the first letter of the parent shown.

Block 1
Target: ABI1, truncated, D143A, DHFR fusion (Arabidopsis thaliana)
Method: DHFR PCA, deep sequencing
Sample: yeast
Setting: methotrexate growth selection, single substitutions
Together with: (+)-ABA 710 µM
Relative to: wild-type fitted maximum
Reading: higher = stronger binding
Measurement: relative binding score
Starting sequence: PYL1, truncated, DHFR fusion (Arabidopsis thaliana); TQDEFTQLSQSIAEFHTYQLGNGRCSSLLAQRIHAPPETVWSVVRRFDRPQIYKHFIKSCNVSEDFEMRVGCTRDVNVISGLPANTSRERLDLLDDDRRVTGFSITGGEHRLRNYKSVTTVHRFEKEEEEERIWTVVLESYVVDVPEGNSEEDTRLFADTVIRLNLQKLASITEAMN; partner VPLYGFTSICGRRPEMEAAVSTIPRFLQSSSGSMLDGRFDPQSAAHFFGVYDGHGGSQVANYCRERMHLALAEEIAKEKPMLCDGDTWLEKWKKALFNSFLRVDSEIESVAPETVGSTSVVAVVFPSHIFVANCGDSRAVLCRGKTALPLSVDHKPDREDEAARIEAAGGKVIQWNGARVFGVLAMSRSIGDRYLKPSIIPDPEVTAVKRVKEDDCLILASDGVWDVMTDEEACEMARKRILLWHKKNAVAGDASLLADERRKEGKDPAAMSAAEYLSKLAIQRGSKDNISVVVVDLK
A84R: 9.39%
R123M: 102%
M176V: 99.2%
G107P: 53.2%
D96Q: 82.6%
L164C: 99.8%
Q51H: 101%
V143R: -2.95%
S171C: 94.3%
L94T: 72.7%
K168T: 99.8%
E4C: 95.5%
R74H: -25.8%
Q10I: 88.1%
N165I: -14.6%
S59L: 89.4%
K126C: 107%

Block 2
Target: Histone acetyltransferase KAT6A, winged helix 2, GST fusion (KAT6A, Homo sapiens, UniProt Q92794, residues 85-181)
Method: protein binding microarray
Form: double-stranded DNA, one strand shown
Sample: in vitro
Concentration: not given
Setting: 8-mer, flanks averaged, mean of 2 arrays, mostly near background
Relative to: not given
Reading: higher = stronger binding
Measurement: E-score
Target sequence (chain): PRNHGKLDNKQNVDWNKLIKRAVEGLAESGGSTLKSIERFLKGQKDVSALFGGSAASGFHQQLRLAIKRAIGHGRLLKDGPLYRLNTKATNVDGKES
CAATGTAA: -0.0226
GACATACC: 0.0208
AATCGCCC: -0.071
CAACCGCC: 0.0175
ACTGGTGA: -0.138
GTCACGCA: -0.0874
CACAAGTC: -0.205
CATAAGTA: -0.222
ATTGCCTA: -0.0478
GGACAACA: -0.0651
ATACGATG: -0.0275
ACTCTCAG: -0.12
ATATGAAG: -0.0419
ATCAGCCA: 0.0398
CCCACACA: 0.0763
CTCGTTGA: 0.105
ATAGCTTA: 0.0034
GCTCCAAA: 0.0456
CACGTAGC: -0.316
ACGCGACG: 0.0231
CTAGCGTC: -0.101
AACACCGG: 0.219
ACGCCACA: 0.142
TCTCGACA: 0.0867

Block 3
Target: RNA binding protein fox-1 homolog 2, RRM domain, GST-SBP tag (RBFOX2, Homo sapiens, UniProt O43251-10, residues 100-194)
Method: RNA Bind-n-Seq
Form: RNA
Sample: in vitro
Concentration: 365 nM
Setting: natural RNA segment, single round, ends assumed
Relative to: no-protein control
Reading: higher = stronger binding
Measurement: RBNS enrichment (R)
All sequences stand within: GGGAGUUCUACAGUCCGACGAUC … UGGAAUUCUCGGGUGCCAA
Residues (chain): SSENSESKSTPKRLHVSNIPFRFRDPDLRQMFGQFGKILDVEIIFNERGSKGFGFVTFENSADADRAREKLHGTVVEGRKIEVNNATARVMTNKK
AAAUAGCAUAAGCAUAUGCUUUUAACUCAUCAUAUUUUUAGUAGUGCUUUUUAGUUUUGUAUAUCAGAUGUCUAGCAGGCAUUCAGCUAAUGCAAAAACAGAUUAGUAUG: 0.531
AGGGAGAACACAGAAAGAAGAAUUUCUAAAAUAUUGGAUUUACUUCUUAUAUUGAGUCAGAUGCAUACUUUUAGAUUUGCAUUGGGGAAAAUGUACUAGCUAAAAAUGGA: 0.86
UAAUAUGAGAUUUCUACUUCGGAGAGGCCAAGUCUAAUGAAGAGAAAAAAAGGAAAAGAAGUUGCAAGACUCGAAUAAAAUCUGCUGCACCUUGUAAAUGCUCUAACUGG: 0.295
CUCUGUUCCCCACCCCUUCCCUUGCUGGCCAUUCUUGGCUUUUAGAAGGGAAAUGUUGAGCCAAAGUUAUGCCUGCGAAGACCCUAAGGUCUCAAAAAGAAGUCUUAAGA: 0.907
UGUCCUGGGCCUCUGUGUAGAGCAUGGAGGAAGAAGACGACAAGUUGAUAGGUGUGGUGGACAGAGGCACAGUUGGCUUCAGGGUUCCUUCCCUGUUUUCUCCCCAGAAU: 0.297
UCUGGAACACAGCCUGAUCUACAAGUACCAGCAUCGUUCUUUUGCCAGCCAGUGAUUUUCUUUUAAAUGAAAAUGAUGGGAUGAGAUGUAAUUUUAGAUCGGGAAGAGAG: 1.04
UGAGUCUGUCCAGAGUGCUUGCUACCGUGUUCGGAGUCUCGCUGCCUCCCUCCCGCGGGAGGUUUCUCCUCUUUUUGAAAAUUCCGUCUGUGGGAUUUUUAGACAUUUUU: 0.679
CGUCUUCCGUGGGACUGUCCCCAAGGCUGAGGCUCCUGCCAAGUCCUAGGGGCCUCUGUACCUGCCCUGCUGGAAGCCCUGACUUCCCCGGGGCCCCAGGCUGUGUUAGG: 0.438
GCCUUUUUAUUUAUAUGUACUGUUUUAUCUGGCCCCAGGUAGAAACUUUUAUCUAUUCUGAGAAAACAAGCAAGUUCUGAGAGCCAGGGUUUUCCUACGUAGGAUGAAAA: 1.43
GGGAAAUAAAAAGAGCAGGGCACUGCUGGUGGGAAGAGGCAUUUUACCUUCCAGUGCAAAUCCUGCUCCUUUGAUUUAAUGGGGUGUACUGGGGCCAGGGGCUGAUUCAC: 0.804
UACCAAAUUGUUUUUUUCUUUUUAAAAGGAAGUUUAAUGUCCGUUGUAUCACAAAUCAGUGUUAAAACACCAGAACUUUAGCCAAAAUAAAUGUCUUACAUUACAAAGGU: 0.931
UAAGUGAUACAAACAUGCCGAAUUACCUGUAAAGAAUGCAUUUAAAGCUAUUCUAAAUGGGUUUUUAUUUGUAAGACAUUAUUUACUAGGAAGCUGGUGAUAUUAAUGCU: 0.495

Block 4
Target: Interferon regulatory factor 5, full length, phosphomimetic (IRF5, Homo sapiens, UniProt Q13568-2, residues 1-514, S451D/S453D/S456D/S462D)
Method: protein-binding microarray
Form: double-stranded DNA, one strand shown
Sample: in vitro
Concentration: 940 nM top
Setting: 60-bp whole probe
Together with: salmon DNA 0.4 mg/ml
Relative to: random background probes
Reading: higher = stronger binding
Measurement: fitted relative affinity
All sequences stand within: GCCTAGCAC … GTCTTGATTCGCTTGACGCTGCTG
TAAGGTCTCGGTTTCGGTTAGTGCTAG: 9.58 z-score
TCAATTATTGCTTCCTCACTGTGCTAG: 0.523 z-score
GAGGGTTTCGACTTTCGGGACGTGCTA: 5.93 z-score
GACGGTATCGACTTTCGGGATGTGCTA: 4.54 z-score
TTAGGTATCGGTCTTGGTTAGTGCTAG: 8.94 z-score
CACGATTTCAGACTGGAGACGTGCTAG: -0.228 z-score
TTAGGCCTGGGTCTCGGTTAGTGCTAG: 1.01 z-score
GACGATCTTAGACTGGAGACGTGCTAG: -0.748 z-score
GACGATATCGGGACTGTAGACGTGCTA: -0.13 z-score
TTCTGAATGCCCTCTAACTTCGTGCTA: 0.168 z-score
GACGATCGCAGTCTCGAGACGTGCTAG: 0.677 z-score
TTAGGAATGGGTTTCGGTTAGTGCTAG: 6.98 z-score
TTTCCTTTACATTCCCCATTGTGCTAG: 3.01 z-score
GACGAACTGAGACTGGTGACGTGCTAG: -0.186 z-score
TTAGGTTTCGGTCTCGGCTAGTGCTAG: 15.3 z-score
GACCGTATCCTTTTCCTGACGTGCTAG: 1.1 z-score
TCAGCTTTTTAGATCGTACTGTGCTAG: 0.358 z-score
TCATTTCAGTTTCTCTTACTGTGCTAG: 3.93 z-score
GACGGCCTCGGTTTCGGGACGTGCTAG: 3.05 z-score
TGAGCTTACAATATAAAAGGGTGCTAG: -0.353 z-score

Block 5
Target: CCNE2, cyclin fold, Cln2 fusion (human)
Method: yeast growth competition, sequencing
Sample: yeast
Setting: strong parent motif
Relative to: not given
Reading: higher = stronger binding
Measurement: normalised enrichment score
Starting sequence: CDKN1B docking peptide (human); PSACRNLFGPVDH
PSACRNLFVPVDH [G9V]: 0.461
PSACRELFGPVDH [N6E]: 0.328
PSACRNHFGPVDH [L7H]: 0.25
PSPCRNLFGPVDH [A3P]: 0.833
PSACRNLFGPVWH [D12W]: 1.7
DSACRNLFGPVDH [P1D]: 0.879
PSACRNLFGPVDC [H13C]: 1.04
PSACRNLFGPVDG [H13G]: 1.12
PSACRFLFGPVDH [N6F]: 0.391
PSACRNLFEPVDH [G9E]: 0.534
PSACRCLFGPVDH [N6C]: 0.559
ASACRNLFGPVDH [P1A]: 2.02
PSACRNLFGQVDH [P10Q]: 1.43
PSACRNLFGPMDH [V11M]: 1.35
PSACRNLFGPVDA [H13A]: 1.42
PSACENLFGPVDH [R5E]: 0.417
PSACRNLFGDVDH [P10D]: 1.86
PSACRNLFGPVDT [H13T]: 1.05
PSACRNLFGPDDH [V11D]: 0.839
PSACRNLFGPVAH [D12A]: 1.93
PSACRNLFSPVDH [G9S]: 0.51
PSACRNLFGPVPH [D12P]: 1.71
PSACRNLFGPWDH [V11W]: 2.32
PSACRNLFGPYDH [V11Y]: 1.69
PSACRNLFGPVQH [D12Q]: 1.7

Block 6
Target: CREB5, bZIP domain (human)
Method: DHFR protein complementation
Sample: yeast
Setting: single substitutions, most at no-binding floor
Relative to: wild-type JUN-FOS pair
Reading: higher = stronger binding
Measurement: binding fitness
Starting sequence: JUN, bZIP domain (human); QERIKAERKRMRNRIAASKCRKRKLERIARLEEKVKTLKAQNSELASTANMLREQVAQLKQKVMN; partner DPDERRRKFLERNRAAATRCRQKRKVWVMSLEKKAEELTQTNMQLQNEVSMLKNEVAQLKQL
A40V: -0.342 natural log
A57M: -0.456 natural log
L38C: -1.38 natural log
E32Y: -0.754 natural log
A57C: -0.537 natural log
E54W: -0.876 natural log
T37L: -0.164 natural log
I28K: -0.377 natural log
Q55V: -0.568 natural log
A46R: -0.302 natural log
S43A: -0.132 natural log
K34P: -1.41 natural log
L45K: -1.3 natural log
K39F: -0.694 natural log
N42Y: -0.877 natural log
K36L: -0.399 natural log
E44F: -0.432 natural log

Some of these lines once more (block 6):
A57C: -0.537 natural log
E54W: -0.876 natural log
T37L: -0.164 natural log
I28K: -0.377 natural log
Q55V: -0.568 natural log
A46R: -0.302 natural log
S43A: -0.132 natural log
K34P: -1.41 natural log
L45K: -1.3 natural log
K39F: -0.694 natural log
N42Y: -0.877 natural log
K36L: -0.399 natural log
